Experimental data from different studies.
Every numbered part comes from another study and shows a few of its results, in no order.

Sample 1
Target: Interferon regulatory factor 5, full length, phosphomimetic (IRF5, Homo sapiens, UniProt Q13568-2, residues 1-514, S451D/S453D/S456D/S462D)
Technique: protein-binding microarray
Form: double-stranded DNA, one strand shown
Medium: in vitro
Concentration: 940 nM top
Setting: 60-bp whole probe
Together with: salmon DNA 0.4 mg/ml
Baseline: random background probes
Direction: higher = stronger binding
Endpoint: fitted relative affinity
Constant ends, left off below: GCCTAGCAC … GTCTTGATTCGCTTGACGCTGCTG
GCCTCTAGGTTTTCTGGAGACGTGCTA: -0.337 z-score
TTGGGTATCGGTCTCGGTTAGTGCTAG: 8.35 z-score
GACGGTCTCGGTATCGGAACGTGCTAG: 4.92 z-score
GACGGTTTCGGTTTCGAGACGTGCTAG: 13.3 z-score
GACGGAATGGGGTTTCGGGACGTGCTA: 1.83 z-score
TCAGCTTTCTTTAACTCACTGTGCTAG: 0.954 z-score
CACGGTATCGACTTTCGGGACGTGCTA: 3.91 z-score
TGAGGTTTCGGGTATCGGTTAGTGCTA: 7.93 z-score
GACTGTATCCTACTGCTGACGTGCTAG: -0.0824 z-score
TTAGGACTCGGGACTGGGTTAGTGCTA: -0.593 z-score
CACGATCTCAGACTGGAGACGTGCTAG: -0.371 z-score
GAGTCTTCTCCTCTAGGTTCGTGCTAG: 0.635 z-score
TCACCAATCAGGACTCAGACTGTGCTA: -0.0328 z-score
GACGGACTGGGTTTCGGGGCGTGCTAG: 2.3 z-score
GACTGTATCGACACTGGGGACGTGCTA: 1.42 z-score
GAGGATTTCAGTCTCGAGACGTGCTAG: 1.62 z-score
GACGATTTCGGGTTGCGAGACGTGCTA: 0.661 z-score
TGGCCTGTGCTATTTATAAGGGTGCTA: 0.196 z-score
GACGAACTGGCGACTGGAGACGTGCTA: -0.513 z-score

Sample 2
Target: Hepatocyte nuclear factor 3-alpha (Foxa1, Mus musculus, UniProt P35582, residues 1-468, full length assumed)
Technique: EMSA with sequencing
Form: double-stranded DNA, one strand shown
Medium: in vitro
Concentration: 10 and 20 nM
Setting: whole designed probe, mean of two concentrations, ends assumed
Baseline: negative control set to 0
Direction: higher = stronger binding
Endpoint: normalised bound fraction
Target sequence (chain): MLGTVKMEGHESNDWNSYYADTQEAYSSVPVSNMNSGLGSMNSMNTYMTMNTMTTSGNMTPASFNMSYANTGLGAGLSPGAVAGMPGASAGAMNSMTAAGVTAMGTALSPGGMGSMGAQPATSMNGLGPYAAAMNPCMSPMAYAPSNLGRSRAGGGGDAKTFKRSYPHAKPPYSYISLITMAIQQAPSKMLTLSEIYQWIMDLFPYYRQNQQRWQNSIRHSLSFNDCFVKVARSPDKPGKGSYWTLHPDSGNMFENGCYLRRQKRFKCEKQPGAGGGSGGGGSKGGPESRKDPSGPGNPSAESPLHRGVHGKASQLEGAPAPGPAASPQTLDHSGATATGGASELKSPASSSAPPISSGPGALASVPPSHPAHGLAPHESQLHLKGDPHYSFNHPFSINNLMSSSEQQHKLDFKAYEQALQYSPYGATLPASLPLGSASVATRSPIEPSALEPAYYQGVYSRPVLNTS
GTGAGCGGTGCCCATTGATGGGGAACGTCCCCTTGTGCGTAGATGGTGGCAAATGATTGTTTGCCAAGCCTTCTACCTCCTCCCTTTCTGTGTTCCATTGAGATCATGGAAATGCAAAGTAATTTGCCATGGAGTAAAATGCCTCCGAGAGTATTTATTTAAGAGTATTGTTCCAGGATATGCACGAAGATAAAGACTTTATGTAATGAATGAGTGACTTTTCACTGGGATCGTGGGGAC: 0.345 ratio
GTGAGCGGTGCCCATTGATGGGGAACTGTGCAATGAAAACACTTCACCATAAAAGTTCACATTTTATTTTAAGTAAGAGAAATAATAGCAATACTCAGGGCCATTTTCCCAACTGCTTGCTGTTTACATTGCAATAGCATTGCACTTTTGTTAAAAATATAAATGTCATATTCCTAAATATTTTCTCCAGATGTTGTCAATCTTATCACTATTTGACACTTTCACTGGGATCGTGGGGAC: 0.289 ratio
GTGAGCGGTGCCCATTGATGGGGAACAAAGGCTAGAGGACATATAATAGAGGCACATGTAAAAATTATAGATAATAGTGTCAACTTTCATAACTTAAAGTGAAAAATTTCTTTTACTATGTTTACTTTGCAGACAGAAAAATAACATTAGTAAGGAATAATTGCTATTTCTTTTTGGTTATTTTTCTCTCATTCATATTAACTTTTCCTAAATTTCAAATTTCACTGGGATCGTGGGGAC: 0.428 ratio
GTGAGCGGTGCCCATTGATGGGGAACTCCTCCCCCTCCTACCAGGCAGGGCTGAGCCAGACTGGGGTTCCAAAGCCCTTCCTCCTTCTCGATCCAGAGATAAATATTTGTTTCTCCAGTGTAATTTGCCCTTCGTGTTTAATGAGGCAATCCTAGGGCCATTTCCTGGCACGGCTCAGGGCCTGGAGGTCTTTCTCGCTCTGGGAGGAACAGTCCTAGGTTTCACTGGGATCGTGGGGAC: 0.051 ratio
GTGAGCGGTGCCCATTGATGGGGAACTATGAATTACAAACATTAAAATTGGCTACAACTCCTCTTCAACCAATTACTAACAAGAAGCACCTAAAAGGTCAAAATCATGAAACACCAAAGTAATCTGACATGTGTGCACCTTTTGCTAAATACCAGTCACATAATCCAACATGTATTCATTATATTTTTGACACTAGGAAATAGTTTAAACCTTGGTTTATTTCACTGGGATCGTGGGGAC: 0.0721 ratio
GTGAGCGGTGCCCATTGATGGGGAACGGACACAGCCAGAGGCCATGAGTGCTCAGGAGTGCCATAAACTGTGATTTTGAGACTGATAAGGCCAGGCTAAATAGCTTGCTGGGTGTGTCTTGTTTGCCTTTTTATATTTGAGGCCTATAAAAAAATAGTGAGAAAATAGCAAGATGCCCAGGAGACAGGTGATCTGATTCAGCCAGGGGGTGGGAGGTGGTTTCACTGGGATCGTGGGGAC: 0.085 ratio
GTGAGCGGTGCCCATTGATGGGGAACATCTTCCCCCTCTTCCTTGCCCCACCAGCTCACCTTCCCGGGTTATTTGCAGATAGGAAAATAAATAAAGCCGGCATTCGTTAACCCTCTTCTGGCGCAAACTGCTGTTTGCTCTGGATGAATCATGGTCCTTTGGCGACGCCAGGCTCCGGGAGAGCAAAGCACCGTGTCAGGGCCTAGGCCAGTGGTGGCCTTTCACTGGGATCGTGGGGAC: 0.323 ratio
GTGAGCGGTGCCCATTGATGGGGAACCATGTACAAACAAAATATGGGTTGTGTAATTTCAGTAATTCCATGTACAAGTTAAACACATTGCACAATTCTGATATTTGCATTTAAAATGTCGTAAACATGAATGCTAACAATCTTTTTTTTTTTTCCTGAGACGGAGTCTTGCTCTATCGCCCAGGCTGGAGTGCAGCGGCACAATCTCTGCTTACTGCCATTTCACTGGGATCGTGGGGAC: 0.29 ratio

Sample 3
Target: Sal-like protein 4, full length isoform B (SALL4, Homo sapiens, UniProt Q9UJQ4-2, residues 1-616)
Technique: universal PBM
Form: double-stranded DNA, one strand shown
Medium: in vitro
Concentration: not given
Setting: 8-mer, flanks averaged, mean of replicates
Direction: higher = stronger binding
Endpoint: E-score
GAAACATA: 0.245
AGGACAGA: -0.0148
AGTTCACA: 0.105
ATTGTAGC: 0.135
CCTCTTCA: 0.103
TCATCAGA: 0.0629
TGAAATCA: 0.229
CAGCCTAA: -0.0533
ATCGCATA: 0.209
TCAGTAAA: 0.139
ATGGGAGG: -0.0311
AGGTACTG: 0.0154
AAGGAATG: 0.143
GCGACGCA: -0.189
CACTCGGG: -0.281
GGCTCCAA: -0.179
CAGTCTCA: -0.0101
GGAGGATA: 0.0618
ACTTATTG: 0.223

Sample 4
Target: RNA binding protein fox-1 homolog 2, RRM domain, GST-SBP tag (RBFOX2, Homo sapiens, UniProt O43251-10, residues 100-194)
Technique: RNA Bind-n-Seq
Form: RNA
Medium: in vitro
Concentration: 365 nM
Setting: natural RNA segment, single round, ends assumed
Baseline: no-protein control
Direction: higher = stronger binding
Endpoint: RBNS enrichment (R)
Target sequence (chain): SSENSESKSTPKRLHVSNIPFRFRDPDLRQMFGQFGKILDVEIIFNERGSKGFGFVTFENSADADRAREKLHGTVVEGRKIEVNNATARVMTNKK
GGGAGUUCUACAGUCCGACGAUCGCAAUUUUUAAUGAGGUUACUGAAUUGUUUAGUAUUCCUAAUAUGGCAUCCAGGUCAUCUUUUCUUUUCUCCAACCAUUAUUAAAAUAACUUGACACUUUGGGAGGCCAAUGGAAUUCUCGGGUGCCAA: 0.57
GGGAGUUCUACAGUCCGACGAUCCUGGCUGCGCCAAUGCCCCAGCUGCUUUGUGGGCAGGCUCUACUAGUUGGCGAGGCACCUGCACAUUUCUGAGUGUCCAUGUUUCCUUUGAGACAUCCCCAUUUCUAUGUUGGAAUUCUCGGGUGCCAA: 0.361
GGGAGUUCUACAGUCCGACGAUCUCUAGUUGUGAAAAUCACUCAAGAUUGAGAGAACAGGCUGGCAUAGUGGGAUAAAGGGCCCAAAAGCAAGGAGACUGUCGUAUAGAAAGAAAGUGGACAGGAUGCUACUGUGGAAUUCUCGGGUGCCAA: 1.11
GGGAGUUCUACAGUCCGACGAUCAAAAAGACUCAGCUCACUCAAUGAGAGAAUGUGAUUUACUUUAUAGAACGUAUAAUCAACUUUGUUGAAUAAUUUGUUCUAUUAAGGCUGUCUAAAGUAUGUGAUGUCUUUGGAAUUCUCGGGUGCCAA: 0.521
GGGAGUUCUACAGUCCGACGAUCUUUAAGUACUCUUCCAGAUGAGAGCUCUUCUACCUUACGUCCAAGAUCUGUAUAUGUGGGAACAAAUAAGUAAAUAUAUAUACAUAUAUAUAUAUUUAAGUACAGUUUUCUGGAAUUCUCGGGUGCCAA: 1.02
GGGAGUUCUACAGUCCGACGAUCAACCGCCCAGUGCAGGUAUUUCAGAAGGAGAAGGCUGGAGAAGGACAUGAGAUCAGGGCCUGCCCCCUGGGGAUCACAGCCUCACCCCUGCCCCUGUGGGACUCAUCCUUUGGAAUUCUCGGGUGCCAA: 0.335
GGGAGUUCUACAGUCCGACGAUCUGCAGGCCUGCUGUCCUCACUCCAGAAUGAGUGCUGGCUCUGCCUCUGGCUGCAGAGUUGAGGUUGGACUCUGGAGUGGAUGGUGGAGAUGAGGCACAGUGGAGAGAAAGUGGAAUUCUCGGGUGCCAA: 1.61
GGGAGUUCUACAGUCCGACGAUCCCCCAUUCCACCCUCUCUGGGACUACAUAUGCAUCAAGAGUAGGACAGGAUGCUGCCUUGCCUGGUUUUGUUCUGAGCUGGUGAAUCCUUUGCUCUUUCAGCUAUUCUAGUGGAAUUCUCGGGUGCCAA: 0.687
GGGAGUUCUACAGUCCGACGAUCGGACUACUUUCUCCACUAUGAAGAUGACUUGGAAAUCGCAACAUCAUGGUACAUUGCUAAGUCCAUGCUUGUGUGUGUGACAGUAGGCUUGAUAAUUUAUCUUAAAACACUGGAAUUCUCGGGUGCCAA: 0.676
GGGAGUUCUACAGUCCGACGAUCCACCACCAAAACCAGUUUAUGCAGUUGGACUCCAAGCUGUAACUUCCUAGAGUUGCACCCUAGCAACCUAGCCAGAAAAGCAAGUGGCAAGAGGAUUAUGGCUAACAAGAUGGAAUUCUCGGGUGCCAA: 0.374
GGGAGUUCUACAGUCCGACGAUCUCUAUCCUCAACCUACAUCCAGAUCCUAUGUGCUGCUUGCACAGAGGCCUUUGGCUUUUGACCCAGGAGGGCCGCGAGGCUGGAGCUGCCCUGUCUUUCAUUGAGCCUUAUGGAAUUCUCGGGUGCCAA: 0.409
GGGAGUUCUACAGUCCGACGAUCGUCUACGAUUUGGUGAAAACAUCUAGAUGUCAUCACAAACUUUGCCAAAUUUGUGGAACUAUUAAAUGUAUAAUUUGUAGACAUAAAGACUUGAUUGCUUUCCAGUUUAAUGGAAUUCUCGGGUGCCAA: 0.392
